Measured values pooled from the literature.
Every numbered part comes from another study and shows a few of its results, in no order.
Chain of UniProt O15075 (whole entry, looked up): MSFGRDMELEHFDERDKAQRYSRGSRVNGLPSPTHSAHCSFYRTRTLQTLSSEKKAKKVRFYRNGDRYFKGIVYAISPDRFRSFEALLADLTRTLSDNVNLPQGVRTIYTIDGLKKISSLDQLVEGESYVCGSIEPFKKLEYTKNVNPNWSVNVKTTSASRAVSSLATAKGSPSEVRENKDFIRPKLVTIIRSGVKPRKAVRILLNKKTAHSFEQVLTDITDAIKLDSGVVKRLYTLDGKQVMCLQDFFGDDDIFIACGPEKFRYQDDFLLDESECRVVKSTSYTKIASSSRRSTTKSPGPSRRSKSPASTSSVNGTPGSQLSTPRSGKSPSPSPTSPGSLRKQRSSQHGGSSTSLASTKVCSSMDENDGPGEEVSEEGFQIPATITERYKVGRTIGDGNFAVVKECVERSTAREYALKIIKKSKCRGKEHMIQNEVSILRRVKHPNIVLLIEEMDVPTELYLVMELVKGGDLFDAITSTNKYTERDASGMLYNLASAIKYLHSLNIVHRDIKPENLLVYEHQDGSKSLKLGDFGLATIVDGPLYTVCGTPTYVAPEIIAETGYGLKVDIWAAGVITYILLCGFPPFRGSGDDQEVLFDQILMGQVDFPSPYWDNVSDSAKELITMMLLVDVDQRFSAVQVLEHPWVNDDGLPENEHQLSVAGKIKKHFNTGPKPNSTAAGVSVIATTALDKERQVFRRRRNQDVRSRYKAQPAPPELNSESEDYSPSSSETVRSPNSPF
Chain of UniProt P42338 (whole entry, looked up): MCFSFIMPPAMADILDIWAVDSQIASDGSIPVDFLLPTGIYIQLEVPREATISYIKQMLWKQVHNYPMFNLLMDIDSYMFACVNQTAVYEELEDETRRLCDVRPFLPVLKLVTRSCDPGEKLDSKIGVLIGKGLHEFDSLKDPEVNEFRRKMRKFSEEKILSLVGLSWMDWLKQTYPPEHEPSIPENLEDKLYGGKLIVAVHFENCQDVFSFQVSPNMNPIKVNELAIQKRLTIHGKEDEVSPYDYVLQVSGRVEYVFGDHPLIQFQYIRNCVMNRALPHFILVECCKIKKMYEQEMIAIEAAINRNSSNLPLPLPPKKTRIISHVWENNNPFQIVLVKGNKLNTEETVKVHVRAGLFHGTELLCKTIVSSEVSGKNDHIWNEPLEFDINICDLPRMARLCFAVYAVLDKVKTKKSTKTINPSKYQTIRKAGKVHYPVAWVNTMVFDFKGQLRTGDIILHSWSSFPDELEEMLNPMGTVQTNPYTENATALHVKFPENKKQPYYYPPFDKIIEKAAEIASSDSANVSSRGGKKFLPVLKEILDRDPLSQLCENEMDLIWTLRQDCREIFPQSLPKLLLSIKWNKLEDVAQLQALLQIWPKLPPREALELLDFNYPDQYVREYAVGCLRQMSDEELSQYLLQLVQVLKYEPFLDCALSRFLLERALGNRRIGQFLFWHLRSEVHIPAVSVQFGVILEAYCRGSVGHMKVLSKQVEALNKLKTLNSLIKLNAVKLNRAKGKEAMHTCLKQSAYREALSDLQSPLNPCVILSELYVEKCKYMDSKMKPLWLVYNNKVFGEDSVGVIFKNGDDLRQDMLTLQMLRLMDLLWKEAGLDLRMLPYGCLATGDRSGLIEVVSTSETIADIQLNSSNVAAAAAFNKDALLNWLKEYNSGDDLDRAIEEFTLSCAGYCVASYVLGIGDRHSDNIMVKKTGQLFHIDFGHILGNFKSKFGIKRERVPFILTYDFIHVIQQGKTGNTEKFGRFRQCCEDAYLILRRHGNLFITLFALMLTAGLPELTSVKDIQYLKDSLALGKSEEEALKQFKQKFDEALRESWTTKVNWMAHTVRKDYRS
Chain of UniProt P25098 (whole entry, looked up): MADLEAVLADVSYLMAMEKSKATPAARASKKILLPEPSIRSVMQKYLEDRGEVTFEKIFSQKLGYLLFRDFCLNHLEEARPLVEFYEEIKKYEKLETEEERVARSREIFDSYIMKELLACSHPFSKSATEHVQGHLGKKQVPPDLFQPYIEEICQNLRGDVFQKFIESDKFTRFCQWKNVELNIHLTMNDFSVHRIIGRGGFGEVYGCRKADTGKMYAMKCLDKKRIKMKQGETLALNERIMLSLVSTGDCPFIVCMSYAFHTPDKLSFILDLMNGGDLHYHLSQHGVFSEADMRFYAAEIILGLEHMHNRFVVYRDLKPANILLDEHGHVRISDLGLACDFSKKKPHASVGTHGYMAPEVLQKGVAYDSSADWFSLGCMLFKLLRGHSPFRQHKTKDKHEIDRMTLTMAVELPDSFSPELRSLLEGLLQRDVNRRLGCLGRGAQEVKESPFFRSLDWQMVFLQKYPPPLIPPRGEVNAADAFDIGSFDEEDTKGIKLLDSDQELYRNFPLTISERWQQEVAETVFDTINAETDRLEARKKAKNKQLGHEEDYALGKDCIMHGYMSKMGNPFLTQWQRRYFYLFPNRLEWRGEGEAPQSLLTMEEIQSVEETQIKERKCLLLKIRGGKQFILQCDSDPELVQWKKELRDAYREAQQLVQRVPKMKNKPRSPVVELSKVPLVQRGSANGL
Chain of UniProt Q9H2X6 (whole entry, looked up): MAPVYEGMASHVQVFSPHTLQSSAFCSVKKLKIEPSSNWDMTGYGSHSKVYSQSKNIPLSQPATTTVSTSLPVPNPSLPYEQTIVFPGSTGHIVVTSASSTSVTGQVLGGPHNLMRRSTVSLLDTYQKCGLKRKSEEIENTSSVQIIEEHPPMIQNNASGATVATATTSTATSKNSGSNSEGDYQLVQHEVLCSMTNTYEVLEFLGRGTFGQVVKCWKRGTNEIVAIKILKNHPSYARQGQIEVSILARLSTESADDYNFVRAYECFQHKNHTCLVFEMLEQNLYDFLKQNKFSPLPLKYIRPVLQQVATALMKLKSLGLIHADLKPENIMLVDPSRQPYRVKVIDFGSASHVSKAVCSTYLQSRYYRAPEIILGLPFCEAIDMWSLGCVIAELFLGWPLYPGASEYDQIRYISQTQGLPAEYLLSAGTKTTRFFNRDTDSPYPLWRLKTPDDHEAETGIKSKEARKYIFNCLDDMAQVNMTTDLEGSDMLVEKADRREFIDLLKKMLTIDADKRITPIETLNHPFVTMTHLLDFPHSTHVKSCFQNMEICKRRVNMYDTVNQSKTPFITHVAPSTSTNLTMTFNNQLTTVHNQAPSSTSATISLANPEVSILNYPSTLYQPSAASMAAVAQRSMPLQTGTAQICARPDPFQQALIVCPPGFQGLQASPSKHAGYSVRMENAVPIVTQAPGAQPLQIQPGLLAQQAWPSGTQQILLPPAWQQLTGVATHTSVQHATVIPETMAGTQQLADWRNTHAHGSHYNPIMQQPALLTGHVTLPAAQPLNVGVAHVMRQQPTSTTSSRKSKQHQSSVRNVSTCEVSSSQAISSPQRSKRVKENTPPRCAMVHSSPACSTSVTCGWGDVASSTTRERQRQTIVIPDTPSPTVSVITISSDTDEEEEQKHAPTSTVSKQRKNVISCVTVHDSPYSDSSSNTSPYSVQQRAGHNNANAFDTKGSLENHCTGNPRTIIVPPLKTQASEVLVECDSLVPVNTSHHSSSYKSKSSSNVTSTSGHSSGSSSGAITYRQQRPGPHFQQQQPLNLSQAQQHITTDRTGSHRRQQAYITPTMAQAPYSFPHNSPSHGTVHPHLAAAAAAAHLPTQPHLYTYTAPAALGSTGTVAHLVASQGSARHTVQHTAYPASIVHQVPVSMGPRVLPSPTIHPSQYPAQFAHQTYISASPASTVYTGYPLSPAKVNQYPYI

Series 1
Target: Serine/threonine-protein kinase 26 (STK26, Homo sapiens, UniProt Q9P289)
Chain of UniProt Q9P289 (whole entry, looked up): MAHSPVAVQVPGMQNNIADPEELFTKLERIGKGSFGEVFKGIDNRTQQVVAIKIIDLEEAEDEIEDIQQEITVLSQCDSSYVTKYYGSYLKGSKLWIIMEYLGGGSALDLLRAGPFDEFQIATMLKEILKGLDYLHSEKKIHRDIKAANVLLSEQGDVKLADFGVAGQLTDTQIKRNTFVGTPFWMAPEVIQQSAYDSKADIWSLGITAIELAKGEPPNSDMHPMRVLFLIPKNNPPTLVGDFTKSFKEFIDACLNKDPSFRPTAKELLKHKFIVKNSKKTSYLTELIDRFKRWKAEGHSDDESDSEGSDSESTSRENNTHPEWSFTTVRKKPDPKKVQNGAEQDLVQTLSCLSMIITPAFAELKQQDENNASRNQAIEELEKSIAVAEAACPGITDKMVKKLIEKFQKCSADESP
Read-out: enzyme activity
Mode: inhibitor
Concentration: 0.5 µM
Baseline: control
Compound | remaining activity
O=Nc1c(-c2c(O)[nH]c3cc(Br)ccc23)[nH]c2ccccc12 | 122%
CN1CCN(c2ccc3nc(-c4c(N)c5c(F)cccc5[nH]c4=O)[nH]c3c2)CC1 | 105%
CN(C)S(=O)(=O)c1ccc2c(c1)/C(=C/c1cc3c([nH]1)CCCC3)C(=O)N2 | 45.6%
COc1ccc(COc2ccc(Cc3cnc(N)nc3N)cc2OC)cc1 | 95.5%
O=c1cc(N2CCOCC2)oc2c(-c3ccccc3)cccc12 | 97.2%
COc1ccc2c(c1)c(C1=C(c3c[nH]c4ccccc34)C(=O)NC1=O)cn2CCCN(C)C | 40.4%
c1ccc2c(-c3ccncc3)c[nH]c2c1 | 104%
Cc1ccc(S(=O)(=O)/C=C/C#N)cc1 | 90.7%
O=C1NC(=O)c2c1c1c3ccccc3[nH]c1c1[nH]c3cc(Br)ccc3c21 | 80.5%
O=C1Cc2c([nH]c3ccc(Br)cc23)-c2ccccc2N1 | 108%
O=C1Nc2ccc(Br)cc2/C1=C/c1cc2c([nH]1)CCCC2 | 87.9%
c1ccc(-c2n[nH]c3c2oc2ccccc23)cc1 | 90.6%
CCCNC(=O)Nc1ccc(Oc2ncnc3cc(OC)c(OC)cc23)cc1Cl | 86.9%
N#Cc1cnc2cnc(NCc3cccnc3)cc2c1Nc1ccc(F)c(Cl)c1 | 95%
O=C(c1cc2cc(O)ccc2[nH]1)c1cc2cc(O)ccc2[nH]1 | 101%
COc1cccc(-c2cc(=O)c3ccccc3o2)c1N | 110%
Cc1cc(Nc2cc(N3CCN(C)CC3)nc(Sc3ccc(NC(=O)C4CC4)cc3)n2)[nH]n1 | 130%
CCCCc1c(-c2ccc(OC)cc2)[nH]c2nccnc12 | 75.8%

Series 2
Compound: CO[C@@H](C)c1c(Nc2ccc([C@@H](N(C)C(=O)C3CCS(=O)(=O)CC3)C(F)(F)F)cc2)cnc2cc(Cl)nn12
Read-out: cell-free assay
Technique: competition with immobilised ligand
Concentration: 1 µM
target | remaining binding
Tyrosine-protein kinase ABL1, non-phosphorylated (ABL1, Homo sapiens, UniProt P00519, F317L) | 100%
Fibroblast growth factor receptor 4 (FGFR4, Homo sapiens, UniProt P22455) | 92%
Hormonally up-regulated neu tumor-associated kinase (HUNK, Homo sapiens, UniProt P57058) | 100%
Insulin receptor (INSR, Homo sapiens, UniProt P06213) | 95%
Mast/stem cell growth factor receptor Kit (KIT, Homo sapiens, UniProt P10721, D816V) | 99%
Tyrosine-protein kinase JAK1, JH2 (JAK1, Homo sapiens, UniProt P23458) | 89%
Serine/threonine-protein kinase Sgk3 (SGK3, Homo sapiens, UniProt Q96BR1) | 100%
Phosphatidylinositol 4,5-bisphosphate 3-kinase catalytic subunit beta isoform (PIK3CB, Homo sapiens, UniProt P42338) | 72%
Calcium/calmodulin-dependent protein kinase type II subunit gamma (CAMK2G, Homo sapiens, UniProt Q13555) | 84%
Phosphatidylinositol 3-kinase catalytic subunit type 3 (PIK3C3, Homo sapiens, UniProt Q8NEB9) | 100%
Epidermal growth factor receptor (EGFR, Homo sapiens, UniProt P00533, del747-752/P753S) | 100%
Serine/threonine-protein kinase B-raf (BRAF, Homo sapiens, UniProt P15056) | 76%
Serine/threonine-protein kinase D2 (PRKD2, Homo sapiens, UniProt Q9BZL6) | 86%
Myosin light chain kinase, smooth muscle (MYLK, Homo sapiens, UniProt Q15746) | 98%
Death-associated protein kinase 1 (DAPK1, Homo sapiens, UniProt P53355) | 89%

Series 3
SMILES: Cc1sc(C(=O)NC2COC2)cc1-n1cc(NC(=O)Nc2c(F)cccc2Cl)cn1
Read-out: enzyme activity
Concentration: 10 µM
Baseline: untreated control
target | remaining activity
Cyclin-dependent kinase 5, with p35 (CDK5, Homo sapiens, UniProt Q00535) | 102%
Serine/threonine-protein kinase TAO2 (TAOK2, Homo sapiens, UniProt Q9UL54) | 88.6%
Homeodomain-interacting protein kinase 2 (HIPK2, Homo sapiens, UniProt Q9H2X6) | 98.6%
Ribosomal protein S6 kinase alpha-5 (RPS6KA5, Homo sapiens, UniProt O75582) | 104%
G protein-coupled receptor kinase 6 (GRK6, Homo sapiens, UniProt P43250) | 89.7%
Tyrosine-protein kinase FRK (FRK, Homo sapiens, UniProt P42685) | 86.3%
Serine/threonine-protein kinase SBK1 (SBK1, Homo sapiens, UniProt Q52WX2) | 80.6%
Serine/threonine-protein kinase DCLK1 (DCLK1, Homo sapiens, UniProt O15075) | 66.1%
Serine/threonine-protein kinase PLK3 (PLK3, Homo sapiens, UniProt Q9H4B4) | 100%
Tyrosine-protein kinase receptor TYRO3 (TYRO3, Homo sapiens, UniProt Q06418) | 96.8%
Serine/threonine-protein kinase haspin (HASPIN, Homo sapiens, UniProt Q8TF76) | 92.3%
Receptor-type tyrosine-protein kinase FLT3 (FLT3, Homo sapiens, UniProt P36888) | 68.4%
Ribosomal protein S6 kinase alpha-6 (RPS6KA6, Homo sapiens, UniProt Q9UK32) | 115%
Beta-adrenergic receptor kinase 1 (GRK2, Homo sapiens, UniProt P25098) | 106%
Cyclin-dependent kinase 2, with cyclin A (CDK2, Homo sapiens, UniProt P24941) | 98.1%
Macrophage colony-stimulating factor 1 receptor (CSF1R, Homo sapiens, UniProt P07333) | 101%
Serine/threonine-protein kinase D1 (PRKD1, Homo sapiens, UniProt Q15139) | 93.2%

Series 4
SMILES: C=CCc1ccc(O)c(-c2ccc(O)c(CC=C)c2)c1
Read-out: chloride current
Technique: whole-cell voltage clamp
ANO1 del476-501/R631K: Anoctamin-1 (ANO1, Homo sapiens, UniProt Q5XXA6, del476-501/R631K)
Chain of UniProt Q5XXA6 (whole entry, unmodified, looked up): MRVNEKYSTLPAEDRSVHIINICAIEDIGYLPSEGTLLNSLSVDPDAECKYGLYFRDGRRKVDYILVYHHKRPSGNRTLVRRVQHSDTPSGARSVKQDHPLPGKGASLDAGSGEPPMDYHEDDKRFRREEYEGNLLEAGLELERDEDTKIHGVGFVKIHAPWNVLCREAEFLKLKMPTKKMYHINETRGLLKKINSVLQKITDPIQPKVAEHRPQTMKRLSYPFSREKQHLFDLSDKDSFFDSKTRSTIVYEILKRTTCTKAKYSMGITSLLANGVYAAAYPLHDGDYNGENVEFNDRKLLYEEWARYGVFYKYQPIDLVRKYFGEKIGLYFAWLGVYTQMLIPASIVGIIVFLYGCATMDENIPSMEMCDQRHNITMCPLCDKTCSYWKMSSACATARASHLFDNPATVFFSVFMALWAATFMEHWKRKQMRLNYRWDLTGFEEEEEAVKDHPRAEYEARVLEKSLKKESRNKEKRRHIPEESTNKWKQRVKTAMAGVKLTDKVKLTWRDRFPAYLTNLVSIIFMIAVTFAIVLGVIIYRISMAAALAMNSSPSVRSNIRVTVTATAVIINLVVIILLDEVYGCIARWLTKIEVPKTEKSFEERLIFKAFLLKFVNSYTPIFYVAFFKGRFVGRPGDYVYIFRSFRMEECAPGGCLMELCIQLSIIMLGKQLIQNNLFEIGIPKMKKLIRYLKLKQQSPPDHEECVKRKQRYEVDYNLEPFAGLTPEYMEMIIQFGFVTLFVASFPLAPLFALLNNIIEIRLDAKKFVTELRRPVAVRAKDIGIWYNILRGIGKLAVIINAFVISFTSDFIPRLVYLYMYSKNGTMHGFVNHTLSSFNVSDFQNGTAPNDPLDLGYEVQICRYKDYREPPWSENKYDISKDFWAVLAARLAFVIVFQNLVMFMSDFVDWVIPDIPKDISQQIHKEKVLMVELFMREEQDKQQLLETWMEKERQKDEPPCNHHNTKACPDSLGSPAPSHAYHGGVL
ANO1 del476-501/F628I: Anoctamin-1 (ANO1, Homo sapiens, UniProt Q5XXA6, del476-501/F628I)
ANO1 del476-501/E650A: Anoctamin-1 (ANO1, Homo sapiens, UniProt Q5XXA6, del476-501/E650A)
ANO1 del476-501/F807A: Anoctamin-1 (ANO1, Homo sapiens, UniProt Q5XXA6, del476-501/F807A)
ANO1 del476-501/F646A: Anoctamin-1 (ANO1, Homo sapiens, UniProt Q5XXA6, del476-501/F646A)
target | mode | concentration | setting | added | IC50
ANO1 del476-501/R631K | inhibitor | – | R605K mutant at -20 mV | – | 8.56 µM
ANO1 del476-501/F628I | inhibitor | – | mutant F602I | – | 9.86 µM
ANO1 del476-501/E650A | – | – | membrane voltage 100 mV | – | 4.39 µM
ANO1 del476-501/F807A | – | – | membrane voltage -40 mV | – | 29.7 µM
ANO1 del476-501/R631K | inhibitor | – | mutant R605K | – | 8.6 µM
ANO1 del476-501/F807A | inhibitor | – | mutant F781A | – | 18.4 µM
Anoctamin-1 (ANO1, Homo sapiens, UniProt Q5XXA6, del476-501/M544A) | – | – | membrane voltage 80 mV | – | 4.09 µM
Anoctamin-1 (ANO1, Homo sapiens, UniProt Q5XXA6, del476-501/F807I) | inhibitor | – | F781I mutant at 20 mV | – | 6.4 µM
ANO1 del476-501/E650A | – | – | membrane voltage -40 mV | – | 3.7 µM
Anoctamin-1 (ANO1, Homo sapiens, UniProt Q5XXA6, del476-501/L548A) | – | – | membrane voltage 60 mV | – | 5.81 µM
Anoctamin-1 (ANO1, Homo sapiens, UniProt Q5XXA6, del476-501/R631I) | inhibitor | – | mutant R605I | – | 32 µM
Anoctamin-1 (ANO1, Homo sapiens, UniProt Q5XXA6, del476-501/F803A) | – | – | membrane voltage 80 mV | – | 12.6 µM
Anoctamin-1 (ANO1, Homo sapiens, UniProt Q5XXA6, del476-501) | inhibitor | – | 80 mV voltage | 300 nM Ca2+ | 4.85 µM
ANO1 del476-501/F646A | – | – | membrane voltage 40 mV | – | 6.14 µM
ANO1 del476-501/F628I | inhibitor | – | F602I mutant at -80 mV | – | 17.7 µM
Anoctamin-1 (ANO1, Homo sapiens, UniProt Q5XXA6, del476-501/F807W) | inhibitor | 60 mV holding voltage | – | – | 9.68 µM
ANO1 del476-501/F646A | – | – | membrane voltage 60 mV | – | 7.13 µM
